Assay results collected from several papers.
Lines come from different studies, so protocols differ. ± gives the spread as reported.

Structure (SMILES) = Cc1ccc(OCC(=O)O)cc1; test system = Sprague-Dawley rat, female, plasma; conditions = oral, 10 mg/kg/day of parent drug, day 1, 90-day repeated dosing; quantity = Cmax; result = 1.74 ± 0.163 µg/mL
Structure (SMILES) = N=C(N)NCCC[C@@H]1NC(=O)[C@H](Cc2c[nH]c3ccccc23)NC(=O)[C@@H](CC2CCCCC2)NC(=O)[C@@H]2CCCN2C(=O)[C@@H](NC(=O)CCc2ccccc2)CCCNC1=O; test system = C57BL/6J mice, spinal cord; conditions = intravenous, 1 mg/kg, two-compartment model; quantity = apparent central volume (V1/F); result = 0.07 µg/(ng/g)
Structure (SMILES) = CC(=O)c1cnc(N)nc1N1CC[C@H]1c1nn2ccc(Cl)c2c(=O)n1-c1ccccc1; test system = rat Wistar female collagen-induced arthritis, plasma; conditions = oral, 1 mg/kg twice daily; quantity = AUC; result = 6.56 ± 0.6 µg·h/mL
Structure (SMILES) = COCC1CN(C2CCN(c3cc(OC)c(Nc4ncc(Br)c(Nc5ccc6c(c5P(C)(C)=O)OCCO6)n4)cc3C)CC2)C1; test system = human; conditions = oral, 10 to 240 mg once daily, safety set, all grades; quantity = patients with urine protein positive; result = 14.8%
Structure (SMILES) = Cc1ccc(/N=N/c2c(O)ccc3ccccc23)c(C)c1; test system = extracted rat blood QC samples; conditions = 5.0 µg/L, 2 h, room temperature, short-term stability; quantity = measured concentration; result = 4.91 µg/L
Structure (SMILES) = CCCCN1C(=O)c2cccc3c(NCCCCCN4CCOCC4)ccc(c23)C1=O; test system = aqueous medium; conditions = pH 6; quantity = average fluorescence lifetime; result = 4.3 ns
Structure (SMILES) = Cc1c(C(=O)Nc2ccn(C)n2)ncn1Cc1cccc(C(F)(F)F)c1; test system = C57BL/6 mice, non-transgenic, plasma; conditions = oral, drinking water, 15 mg/kg daily, 10 days; quantity = concentration at time point; result = 0.0236 ± 0.0072 µg/mL
Structure (SMILES) = CC1(C)C(=CC=C(C=CC2=[N+](CCC[N+](C)(C)C)c3ccc(S(=O)(=O)[O-])cc3C2(C)C)CCC(=O)[O-])N(CCC[N+](C)(C)C)c2ccc(S(=O)(=O)[O-])cc21; test system = 100% serum; conditions = pH 7.4; quantity = extinction coefficient; result = 272000 M⁻¹ cm⁻¹
Structure (SMILES) = CC(NC(=O)OC1OC(C(=O)O)C(O)C(O)C1O)c1cc(Cl)ccc1Cn1c(=S)[nH]c(=O)c2[nH]ccc21 (centres unmarked); test system = Sprague-Dawley rat, male, plasma; conditions = oral, 125 mg/kg/day; scale = reference: rat over human 10 mg; quantity = exposure ratio; result = 2.6
Structure (SMILES) = O=C(CCCCC[N+]#[C][99Tc-5]([C]#[N+]CCCCCC(=O)N[C@H]1C(O)O[C@H](CO)[C@@H](O)[C@@H]1O)([C]#[N+]CCCCCC(=O)N[C@H]1C(O)O[C@H](CO)[C@@H](O)[C@@H]1O)([C]#[N+]CCCCCC(=O)N[C@H]1C(O)O[C@H](CO)[C@@H](O)[C@@H]1O)([C]#[N+]CCCCCC(=O)N[C@H]1C(O)O[C@H](CO)[C@@H](O)[C@@H]1O)[C]#[N+]CCCCCC(=O)N[C@H]1C(O)O[C@H](CO)[C@@H](O)[C@@H]1O)N[C@H]1C(O)O[C@H](CO)[C@@H](O)[C@@H]1O (some centres unmarked); test system = CD-1 mouse, healthy, blood; quantity = distribution half-life; result = 5.81 min
Structure (SMILES) = NCC(=O)N1CCC[C@H]1C(=O)N1C[C@H](O)C[C@H]1C(=O)O; assay = potentiometric titration; conditions = 25 °C, MA2 complex, added: Fe(III); quantity = log beta; result = 24.7
Structure (SMILES) = CCCC[C@H](NC(=O)CNC(=O)CNC(=O)CN1CCN(CC(=O)O)CCN(CC(=O)O)CCN(CC(=O)O)CC1)C(=O)N[C@H]1CC(=O)NCCCC[C@@H](C(N)=O)NC(=O)[C@H](Cc2c[nH]c3ccccc23)NC(=O)[C@H](CCCNC(=N)N)NC(=O)[C@@H](Cc2ccccc2)NC(=O)[C@H](Cc2c[nH]cn2)NC1=O [copper-64 labelled]; test system = C57 mouse female B16/F1 melanoma, urine; conditions = intravenous, 0.037 MBq, 4 h; quantity = urinary excretion; result = 62.2 ± 4.43%
Structure (SMILES) = CCCCCC(C)NCC(=O)O (centres unmarked); assay = shake flask; test system = water; conditions = 24 h; quantity = logP; result = -0.17
Structure (SMILES) = CC(C)[C@H](NC(=O)[C@@H]1CCCN1C(=O)[C@H](CCCNC(=N)N)NC(=O)[C@H](CS)NC(=O)[C@H](Cc1c[nH]c2ccccc12)NC(=O)[C@H](CCCNC(=N)N)NC(=O)[C@@H](Cc1ccccc1)NC(=O)[C@H](Cc1c[nH]cn1)NC(=O)[C@H](CCC(=O)O)NC(=O)[C@H](CS)NC(=O)[C@H](CS)NC(=O)[C@@H]1CC(=O)N[C@@H](CCCNC(=N)N)C(=O)NCC(=O)N[C@@H](CC(=O)O)C(=O)N[C@H](Cc2ccc(O)cc2)C(=O)N1)C(N)=O [technetium-99m labelled]; test system = C57 mice B16/F1 melanoma female, urine; conditions = iv, 0.037 MBq, 2 h; quantity = excretion; result = 74.6 ± 4.55%
Structure (SMILES) = N=C(N)NCCC[C@H](NC(=O)CON=C[C@H](F)[C@@H](O)[C@H](O)[C@H](O)CO)C(=O)NCC(=O)N[C@@H](CC(=O)O)C(=O)O [fluorine-18 labelled]; test system = nude mice, U-87 MG xenograft; conditions = intravenous, 0.5 h; scale = reference: tumour over liver; quantity = tissue ratio; result = 2.17 ± 0.76
Structure (SMILES) = NC12CNCCNCC(NCc3ccc(CNC(=O)CCCC(=O)NCc4ccc(-c5nncnn5)cc4)cc3)(CNCCNC1)CNCCNC2.[64Cu+2]; assay = OLINDA dosimetry; test system = breasts; conditions = pretargeting, 24-h interval; quantity = mean absorbed dose; result = 0.0325 rad/mCi
Structure (SMILES) = NC[C@@H](C(=O)Nc1ccc(-c2cn[nH]c2)cc1)c1ccccc1; assay = OECD 405 eye irritation; test system = New Zealand White rabbit, eye; conditions = topical, 0.1%, 8 h (day 1), scale 0 to 4; scale = direction not given; quantity = cornea score; result = 0
Structure (SMILES) = CC(C)(O)c1ncc([S@](N)(=O)=NC(=O)Nc2c3c(cc4c2CCC4)CCC3)s1; test system = human, plasma; conditions = oral, 600 mg, single dose, fasted, healthy volunteers; quantity = Cmax; result = 59.1 µg/mL
Structure (SMILES) = COc1cc(NC(C)=O)c2c(c1O)-c1c(OC)c(OC)cc3c1C(C2)N(C)CC3 (centres unmarked); test system = rat heart homogenate; conditions = 5 µg/mL, 24 h, room temperature, post-preparative storage; quantity = remaining compound; result = 111 ± 2%
Structure (SMILES) = [O-]c1cccc(-c2cccc([O-])n2)n1.[Ru+2].c1ccc(-c2ccccn2)nc1.c1ccc(-c2ccccn2)nc1; assay = shake flask; test system = octanol/buffer; quantity = logP of basic form; result = 1.6
Structure (SMILES) = CCCC[C@@H]1NC(=O)[C@@H](NC(=O)[C@H](CCC(=O)O)NC(=O)CNC(=O)CN2CCN(CC(=O)O)CCN(CC(=O)O)CCN(CC(=O)O)CC2)CCCCNC(=O)C[C@@H](C(N)=O)NC(=O)[C@H](C(C)C)NC(=O)[C@@H]2CCCN2C(=O)[C@H](CCCNC(=N)N)NC(=O)CNC(=O)[C@H](Cc2c[nH]c3ccccc23)NC(=O)[C@H](CCCNC(=N)N)NC(=O)[C@@H](Cc2ccccc2)NC(=O)[C@H](Cc2c[nH]cn2)NC(=O)[C@H](CCC(=O)O)NC1=O [gallium-67 labelled]; test system = C57 mice, B16/F1 flank melanoma, skin; conditions = intravenous, 0.037 MBq/mouse, 2 h; quantity = tissue uptake; result = 0.25 ± 0.03 %ID/g
Structure (SMILES) = CCCC[C@H](NC(=O)CNC(=O)CNC(=O)CN1CCN(CC(=O)O)CCN(CC(=O)O)CCN(CC(=O)O)CC1)C(=O)N[C@H]1CC(=O)NCCCC[C@@H](C(N)=O)NC(=O)[C@H](Cc2c[nH]c3ccccc23)NC(=O)[C@H](CCCNC(=N)N)NC(=O)[C@@H](Cc2ccccc2)NC(=O)[C@H](Cc2c[nH]cn2)NC1=O [indium-111 labelled]; test system = C57 mouse, female, B16/F1 melanoma, urine; conditions = intravenous, 0.037 MBq, 4 h; quantity = urinary excretion; result = 88.4 ± 3.06%
Structure (SMILES) = O=C(O)C1OC(OC2CCC(C(O)CC3c4c(F)cccc4-c4cncn43)CC2)C(O)C(O)C1O (centres unmarked); test system = human, urine and faeces; conditions = oral, 200 mg, [14C]-navoximod dosed; scale = reference: dose; quantity = total excretion urine plus faeces; result = 8.74%
Structure (SMILES) = CC[C@@H](C)[C@H]1NC(=O)[C@@H]([C@H](C)O)NC(=O)[C@@H](Cc2c[nH]cn2)NC(=O)CNC(=O)[C@@H](CCCNC(=N)N)NC(=O)CNC(=O)[C@@H](Cc2ccccc2)NC1=O; test system = rat, retina; conditions = eye drop, dose not given, 3 h; quantity = retina concentration; result = ~4.3 µM
Structure (SMILES) = CCOc1ccc2c(c1)C(C)CC(C)(C)N2 (centres unmarked); assay = LC-MS/MS; test system = laying hens, skin and fat; conditions = oral in feed, 50 mg/kg feed ethoxyquin, 56 days; quantity = tissue residue; result = 1.8 ± 1.5 ng/g
Structure (SMILES) = C[C@H](NC(=O)c1ccc2c(c1)C(=O)OC21c2ccc(O)cc2Oc2cc(O)ccc21)C(=O)N[C@@H](CCCCN)C(=O)N[C@@H](C)C(=O)N[C@@H](CCCCN)C(=O)N[C@@H](C)C(=O)N[C@@H](CCCCN)C(=O)N[C@@H](C)C(=O)N[C@@H](CCCCN)C(=O)N[C@@H](C)C(=O)N[C@@H](CCCCN)C(=O)N[C@@H](C)C(=O)N[C@@H](CCCCN)C(=O)N[C@@H](C)C(=O)N[C@@H](CCCCN)C(=O)N[C@@H](C)C(=O)N[C@@H](CC(N)=O)C(=O)N[C@@H](C)C(=O)N[C@@H](CC(N)=O)C(=O)N[C@@H](C)C(=O)N[C@@H](CC(N)=O)C(=O)O; test system = bovine cartilage explants; conditions = 24 h, desorption in 1 x PBS; quantity = released fraction of uptaken compound; result = 80%
Structure (SMILES) = CC[C@H](C)[C@H](NC(=O)[C@H](N)Cc1ccc(O)cc1)C(=O)N[C@H]1CSSC[C@@H](C(=O)N(C)[C@H](C(N)=O)[C@@H](C)CC)NC(=O)[C@H](CCCNC(=N)N)NC(=O)[C@H](Cc2c[nH]cn2)NC(=O)[C@H](C)NC(=O)CN(C)C(=O)[C@H](Cc2c[nH]c3ccccc23)NC(=O)[C@H](CC(=O)O)NC(=O)[C@H](CCC(N)=O)NC(=O)[C@H](Cc2cn(C)c3ccccc23)NC(=O)[C@H](C(C)C)NC1=O; assay = UPLC-ESI-MS; test system = human plasma; conditions = 3.58 µg/mL, 24 h, 25 °C, bench-top after SPE; quantity = recovery; result = 99.7 ± 0.9%
Structure (SMILES) = C[C@]12C[C@H](c3ccc(S(C)(=N)=O)cc3)C3=C4CCC(=O)C=C4CC[C@H]3[C@@H]1CC[C@@]2(O)C(F)(F)C(F)(F)F (some centres unmarked); test system = human liver microsomes; conditions = 100 % absorption assumed; quantity = maximal oral bioavailability; result = 75%
Structure (SMILES) = [11CH3]c1ccc2nc(C3CCC3)n(-c3ccc4[nH]ncc4c3)c2n1; test system = human female, muscle; quantity = absorbed radiation dose; result = 2.4 µSv/MBq

For quick reference, copied from above:
Structure (SMILES) = N=C(N)NCCC[C@@H]1NC(=O)[C@H](Cc2c[nH]c3ccccc23)NC(=O)[C@@H](CC2CCCCC2)NC(=O)[C@@H]2CCCN2C(=O)[C@@H](NC(=O)CCc2ccccc2)CCCNC1=O; test system = C57BL/6J mice, spinal cord; conditions = intravenous, 1 mg/kg, two-compartment model; quantity = apparent central volume (V1/F); result = 0.07 µg/(ng/g)
Structure (SMILES) = CC(=O)c1cnc(N)nc1N1CC[C@H]1c1nn2ccc(Cl)c2c(=O)n1-c1ccccc1; test system = rat Wistar female collagen-induced arthritis, plasma; conditions = oral, 1 mg/kg twice daily; quantity = AUC; result = 6.56 ± 0.6 µg·h/mL
Structure (SMILES) = COCC1CN(C2CCN(c3cc(OC)c(Nc4ncc(Br)c(Nc5ccc6c(c5P(C)(C)=O)OCCO6)n4)cc3C)CC2)C1; test system = human; conditions = oral, 10 to 240 mg once daily, safety set, all grades; quantity = patients with urine protein positive; result = 14.8%
Structure (SMILES) = Cc1ccc(/N=N/c2c(O)ccc3ccccc23)c(C)c1; test system = extracted rat blood QC samples; conditions = 5.0 µg/L, 2 h, room temperature, short-term stability; quantity = measured concentration; result = 4.91 µg/L
